Measurements pooled from the literature.
Numbered parts are unrelated; each lists some results of a single study. Substitutions count along the parent as printed.

Sample 1 — method: RNA Bind-n-Seq; molecule type: RNA; sample: in vitro; concentration: 200 nM; notes: whole 134-nt RNA, ends assumed; together with: 150 mM LiCl; relative to: input library; direction: higher = stronger binding; all molecules: 7-deaza-guanosine replaces G
Target: Fragile X messenger ribonucleoprotein 1, C-terminal low-complexity region (Fmr1, Mus musculus, UniProt P35922)
Oligonucleotide	log2 enrichment
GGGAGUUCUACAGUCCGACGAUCCAAGUCCUGUGCUACACAUCGUAUGUACCGAAUCGGGGUGGGGUGGGGUUUGGGGAAAGUAUUAUGUUACGCCGUUCGGAUCUGCACUUCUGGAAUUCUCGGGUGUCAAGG	-0.904
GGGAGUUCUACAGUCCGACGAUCUCAAGUCCUGUGCUACACAUCGUAUGUACCGAAUCGGAGGUUUUUGGUUUUUGGAAAGUAUUAUGUUACGCCGUUCGGAUCUGCACUUCCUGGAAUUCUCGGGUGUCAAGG	-1.24
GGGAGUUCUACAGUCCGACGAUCACCAUGCAGGUGCGCAUCUUUGGGAAGUGGGGCAAGGGGGGGAUAGGGAGGGGGGUAACACUUUGGGAACAGGUGGUCCCAGGUCGUUUCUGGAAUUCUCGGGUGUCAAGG	1.12
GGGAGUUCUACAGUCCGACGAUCGUCCUGUGCUACACAUCGUAUGUACCGAAUCAAACCCCCAAACCCCCCCAAAUUUAAAAAAGUAUUAUGUUACGCCGUUCGGAUCUGCACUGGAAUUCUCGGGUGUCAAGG	1.3
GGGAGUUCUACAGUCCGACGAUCCUGUGCUACACAUCGUAUGUACCGAAUCGGGGUUUUUUUGGGUUUUUUUGGUUUUUUUGGGGAAAGUAUUAUGUUACGCCGUUCGGAUCUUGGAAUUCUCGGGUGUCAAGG	0.996
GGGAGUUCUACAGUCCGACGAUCCACAGACAACACGCACCCACACAGACACAGAGGGAAGGGGUUGGGAUGGGGACAGGAAACACAGCAGGGCGGGGUAGGACCCCAGCCCCUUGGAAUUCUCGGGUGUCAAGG	-0.114
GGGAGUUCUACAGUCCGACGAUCGCAGGAAGUAAAAACAAAUGGAAAUGCUUCGGAUAGUGGCAGGGGUGGGGGUUGCUAAGGAAAGGGUGGGAUAGGAGUGGGUAAAGAGUUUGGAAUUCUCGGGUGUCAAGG	1.44
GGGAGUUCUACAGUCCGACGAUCCUCAAGUCCUGUGCUACACAUCGUAUGUACCGAAUCGGAAAGGUUUUUGGAGGAAAGUAUUAUGUUACGCCGUUCGGAUCUGCACUUCCAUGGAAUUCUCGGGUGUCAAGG	-0.622
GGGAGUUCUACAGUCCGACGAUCCACAGACAACACGCACCCACACAGACACAGUGGGAAGGGGUUGGGAUGGGGACAGGGUGCACAGCAGGGCGGGGUAGGACCCCAGCCCCUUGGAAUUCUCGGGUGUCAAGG	-1.07
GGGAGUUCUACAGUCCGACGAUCUCCUGUGCUACACAUCGUAUGUACCGAAUCGGGGUUUUUGGGGUUUUUGGGGUUUGGGGAAAGUAUUAUGUUACGCCGUUCGGAUCUGCAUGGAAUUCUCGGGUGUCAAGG	-0.504
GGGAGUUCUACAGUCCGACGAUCCUCAAGUCCUGUGCUACACAUCGUAUGUACCGAAUCGGGGUGGGGUGGUGGGGAAAGUAUUAUGUUACGCCGUUCGGAUCUGCACUUCCAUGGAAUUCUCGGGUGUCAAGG	-0.399

Sample 2 — method: protein-binding microarray; molecule type: hairpin DNA; sample: in vitro; concentration: not given; relative to: not given; direction: higher = stronger binding
Target: Cyclic AMP-responsive element-binding protein 1, full length (CREB1, Homo sapiens, UniProt P16220, residues 1-327)
Notes: whole hairpin DNA, median over replicate spots
Oligonucleotide	median fluorescence [a.u.]
GAGGCCGACCGCGTCGTGCCTCCTGGCACGACGCGGTCGGCCTCACACTC (5mC at 9 10 15 29)	3180
GAGGCCGACGACGTCGGGCCTCCTGGCCCGACGTCGTCGGCCTCACACTC (5mC at 9 15 28 29 35)	3740
GAGGCCGGATGAGGTCAGCCTCCTGGCTGACCTCATCCGGCCTCACACTC (5mC at 32)	2670
GAGGCCGGATGACGTCAGCCTCCTGGCTGACGTCATCCGGCCTCACACTC (5mC at 38)	22900
GAGGCCGGCTGACCGCAGCCTCCTGGCTGCGGTCAGCCGGCCTCACACTC (5mC at 30)	2730
GAGGCCGGCCGACGTCAGCCTCCTGGCTGACGTCGGCCGGCCTCACACTC (5mC at 10 34)	4820
GAGGCCGACGCGGTCGTGCCTCCTGGCACGACCGCGTCGGCCTCACACTC (5mC at 9 11 15 29 35)	2830
GAGGCCGGACGACGTCAGCCTCCTGGCTGACGTCGTCCGGCCTCACACTC (5mC at 10 34)	5940
GAGGCCGGCTGACGTCAGCCTCCTGGCTGACGTCAGCCGGCCTCACACTC (5mC at 38)	12200
GAGGCCGGATGACGTCAGCCTCCTGGCTGACGTCATCCGGCCTCACACTC (5mC at 31)	7920
GAGGCCGACGACGTCCGGCCTCCTGGCCGGACGTCGTCGGCCTCACACTC (5mC at 9 15 16 35)	2890
GAGGCCGGATCACGTCAGCCTCCTGGCTGACGTGATCCGGCCTCACACTC	4680
GAGGCCGGAGGACGTCAGCCTCCTGGCTGACGTCCTCCGGCCTCACACTC	4140
GAGGCCGACGACGTCTTGCCTCCTGGCAAGACGTCGTCGGCCTCACACTC (5mC at 9 15 35)	3100
GAGGCCCGATGACGTCAGCCTCCTGGCTGACGTCATCGGGCCTCACACTC (5mC at 7)	29500
GAGGCCGGCTGACGTCAGCCTCCTGGCTGACGTCAGCCGGCCTCACACTC (5mC at 31)	4310
GAGGCCGGATAACGTCAGCCTCCTGGCTGACGTTATCCGGCCTCACACTC	4330

Sample 3 — target: ATF1, bZIP domain (human); method: DHFR protein complementation; sample: yeast; relative to: wild-type JUN-FOS pair; direction: higher = stronger binding
Notes: single substitutions, most at no-binding floor
Parent: JUN, bZIP domain (human); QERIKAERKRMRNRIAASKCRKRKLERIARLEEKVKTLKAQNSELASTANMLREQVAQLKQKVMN; partner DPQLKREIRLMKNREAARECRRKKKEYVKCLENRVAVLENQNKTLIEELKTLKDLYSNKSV
Substitution	binding fitness [natural log]
L45A	-1.54
L52W	-1.55
S47L	-1.4
A46D	-1.35
K34Q	-1.5
N42E	-1.54
L31P	-1.54
I28H	-1.63
S47D	-1.52
L31V	-1.52
M51R	-1.5
A46V	-1.45
V56T	-1.36
E32D	-1.5
L52C	-1.57
M51V	-1.48
Q41V	-1.49
K36T	-1.46
Q58R	-1.39
A40R	-1.44
V35D	-1.61

Sample 4 — method: RNAcompete; molecule type: RNA; sample: in vitro; concentration: 20 nM; notes: 7-mer, probes averaged, single round; relative to: mean of 7-mers; direction: higher = stronger binding
Target: PABPC1L2, full length, GST fusion (mouse, UniProt A0ABA7IW68)
Residues (chain): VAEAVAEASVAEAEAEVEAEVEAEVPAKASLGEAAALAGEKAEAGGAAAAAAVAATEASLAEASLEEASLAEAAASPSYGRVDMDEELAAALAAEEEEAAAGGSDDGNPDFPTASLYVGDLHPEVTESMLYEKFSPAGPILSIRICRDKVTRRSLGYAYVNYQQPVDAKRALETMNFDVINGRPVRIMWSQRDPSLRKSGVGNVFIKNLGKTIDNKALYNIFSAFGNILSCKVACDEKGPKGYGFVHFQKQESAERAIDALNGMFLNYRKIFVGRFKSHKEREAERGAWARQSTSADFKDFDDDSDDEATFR
Oligonucleotide	7-mer Z-score
CGGCGCU	-0.021
UCUCGUA	-0.217
UCUAAUU	-0.4
ACGCAUU	-0.197
ACGCAGG	0.263
UCAUCAA	-0.0899
GGCCGAC	0.066
GAUGUAC	-0.166
UUCGCCA	-0.344
GCCGGAC	0.0297
AGCUUCU	-0.429
GAGCUAA	0.0315
ACGAUUA	-0.122
CGAAAUG	-0.0645
ACGUCUA	-0.385
CGCUUUG	-0.335
AGGCUCC	-0.0736
CAACUGU	-0.311
AACGAGG	0.2
CUUGUUA	-0.391
UGAGUGU	-0.213
UCUGAGG	-0.0989
GAUUCAU	-0.146
UAGAUGA	-0.0826
UCCAGGC	-0.126

Sample 5 — method: DHFR PCA, deep sequencing; sample: yeast; together with: (+)-ABA 0.11 µM; relative to: wild-type fitted maximum; direction: higher = stronger binding
Target: ABI1, truncated, D143A, DHFR fusion (Arabidopsis thaliana)
Notes: methotrexate growth selection, single substitutions
Parent: PYL1, truncated, DHFR fusion (Arabidopsis thaliana); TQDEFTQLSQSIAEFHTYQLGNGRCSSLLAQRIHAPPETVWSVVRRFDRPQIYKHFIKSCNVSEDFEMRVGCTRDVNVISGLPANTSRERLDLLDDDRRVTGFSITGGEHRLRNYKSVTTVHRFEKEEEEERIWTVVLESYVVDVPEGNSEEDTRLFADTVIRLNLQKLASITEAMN
Substitution	relative binding score [%]
G71C	-7.6
S11N	7.19
D97E	53.2
E152N	0.957
K126Y	24.2
E174W	0.669
S171R	47.1
D3E	50.5
V62M	11.9
S87F	30.2
I79E	14.2
K116E	-3.24
F15M	-0.803
R46K	0.31

Sample 6 — target: CCNB2, cyclin fold, Cln2 fusion (human); method: yeast growth competition, sequencing; sample: yeast; notes: weak parent motif; relative to: not given; direction: higher = stronger binding
Parent: PKN2 docking peptide (human); VSAVQKLDFSDTM; partner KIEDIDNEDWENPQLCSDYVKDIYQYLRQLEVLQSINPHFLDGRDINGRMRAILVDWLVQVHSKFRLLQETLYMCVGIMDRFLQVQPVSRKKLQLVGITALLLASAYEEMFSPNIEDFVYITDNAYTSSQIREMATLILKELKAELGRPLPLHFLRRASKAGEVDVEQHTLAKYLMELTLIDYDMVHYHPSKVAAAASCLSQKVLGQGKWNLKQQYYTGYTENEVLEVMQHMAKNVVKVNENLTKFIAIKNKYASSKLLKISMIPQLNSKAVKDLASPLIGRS
Substitution	normalised enrichment score
K6H	-0.231
F9V	-0.382
T12E	0.676
S2E	-0.353
L7G	-0.524
L7V	-0.421
D11M	-0.241
F9K	0.0631
S10H	-0.126
V4I	-0.0303
D8Q	-0.224
M13K	-0.0787
D11N	0.24
M13Y	0.527
F9G	-0.146
M13F	-0.157
V1R	0.0812
K6D	-0.563

Sample 7 — method: protein binding microarray; molecule type: double-stranded DNA, one strand shown; sample: in vitro; concentration: not given; relative to: not given; direction: higher = stronger binding
Target: Histone acetyltransferase KAT6A, winged helix 2, GST fusion (KAT6A, Homo sapiens, UniProt Q92794, residues 85-181)
Notes: 8-mer, flanks averaged, mean of 2 arrays, mostly near background
Target sequence (chain): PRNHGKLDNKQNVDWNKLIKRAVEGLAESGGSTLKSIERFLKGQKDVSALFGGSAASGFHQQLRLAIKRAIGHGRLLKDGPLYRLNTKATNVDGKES
Oligonucleotide	E-score
GTACCAAC	0.133
AGCCTTCA	-0.045
AGACACAA	0.00106
CCGGACAG	0.0979
GCGCAGAA	0.145
CACCGGAG	0.00875
GCGTCCAC	0.0831
CCCTGGGC	0.089
AATTGTAC	-0.013
AGCGGAAC	0.0182
ACTTCCGC	0.0286
AAACCAAG	0.0016
ACAATGCG	-0.00445
GAGAACTA	-0.11
CGTGCGCA	0.103
ACTTGGAT	-0.128
ACACGTCT	-0.258
AACACTCC	-0.0947
CCCTATCA	-0.0414

Repeated from above (sample 3):
Substitution	binding fitness [natural log]
I28H	-1.63
L45A	-1.54
M51R	-1.5
A40R	-1.44
S47D	-1.52
Q41V	-1.49
V56T	-1.36
L31V	-1.52
N42E	-1.54
A46V	-1.45
L52C	-1.57
V35D	-1.61
M51V	-1.48
